Measured values of several laboratories.
Each line is one published result; not all experiments were run side by side. Values joined by “and” are separate records of one study, mostly repeats; a detail may differ. ± marks the error that the study gave. Values after ≈ are worked out from the molar mass of the structure shown.
Sequence of UniProt P21709 (whole entry, looked up): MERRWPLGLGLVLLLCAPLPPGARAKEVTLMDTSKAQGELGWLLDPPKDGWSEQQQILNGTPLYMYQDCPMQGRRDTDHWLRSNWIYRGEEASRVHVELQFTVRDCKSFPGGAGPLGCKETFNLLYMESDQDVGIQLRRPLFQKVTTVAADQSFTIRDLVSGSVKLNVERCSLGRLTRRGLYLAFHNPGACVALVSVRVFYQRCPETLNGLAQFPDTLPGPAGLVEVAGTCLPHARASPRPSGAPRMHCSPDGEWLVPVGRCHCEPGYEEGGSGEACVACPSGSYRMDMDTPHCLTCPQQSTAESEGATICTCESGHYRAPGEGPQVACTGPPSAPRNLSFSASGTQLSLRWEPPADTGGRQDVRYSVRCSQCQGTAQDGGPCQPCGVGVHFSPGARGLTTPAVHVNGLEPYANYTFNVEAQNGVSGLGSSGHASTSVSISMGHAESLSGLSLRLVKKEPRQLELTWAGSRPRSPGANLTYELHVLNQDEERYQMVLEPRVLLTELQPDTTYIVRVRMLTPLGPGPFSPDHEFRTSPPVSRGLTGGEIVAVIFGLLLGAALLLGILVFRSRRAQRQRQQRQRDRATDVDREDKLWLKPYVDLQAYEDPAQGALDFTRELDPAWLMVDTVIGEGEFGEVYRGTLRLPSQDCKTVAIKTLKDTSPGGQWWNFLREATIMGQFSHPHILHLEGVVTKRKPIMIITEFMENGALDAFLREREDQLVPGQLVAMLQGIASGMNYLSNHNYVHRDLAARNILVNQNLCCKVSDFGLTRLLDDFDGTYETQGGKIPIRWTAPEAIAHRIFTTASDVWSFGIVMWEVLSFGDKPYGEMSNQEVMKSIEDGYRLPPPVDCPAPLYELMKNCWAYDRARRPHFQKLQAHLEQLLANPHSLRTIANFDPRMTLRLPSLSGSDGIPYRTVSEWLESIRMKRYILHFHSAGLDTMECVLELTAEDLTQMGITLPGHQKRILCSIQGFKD
Sequence of UniProt P10398 (whole entry, looked up): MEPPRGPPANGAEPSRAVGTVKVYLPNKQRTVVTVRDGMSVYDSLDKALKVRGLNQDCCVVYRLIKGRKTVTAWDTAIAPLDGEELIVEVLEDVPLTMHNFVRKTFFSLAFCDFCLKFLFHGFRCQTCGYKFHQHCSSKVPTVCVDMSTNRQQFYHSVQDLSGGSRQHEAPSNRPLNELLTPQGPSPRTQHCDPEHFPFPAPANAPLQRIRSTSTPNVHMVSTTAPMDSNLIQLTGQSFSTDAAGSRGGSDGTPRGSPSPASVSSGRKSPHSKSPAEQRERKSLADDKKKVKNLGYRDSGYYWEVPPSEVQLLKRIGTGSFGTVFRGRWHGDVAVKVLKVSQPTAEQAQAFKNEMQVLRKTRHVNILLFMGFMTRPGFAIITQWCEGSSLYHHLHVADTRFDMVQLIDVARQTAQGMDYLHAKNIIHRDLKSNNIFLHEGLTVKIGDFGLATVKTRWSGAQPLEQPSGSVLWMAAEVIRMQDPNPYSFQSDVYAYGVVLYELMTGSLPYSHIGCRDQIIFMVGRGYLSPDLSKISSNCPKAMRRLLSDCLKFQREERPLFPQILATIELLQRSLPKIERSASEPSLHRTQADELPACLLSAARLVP
Sequence of UniProt P16234 (whole entry, looked up): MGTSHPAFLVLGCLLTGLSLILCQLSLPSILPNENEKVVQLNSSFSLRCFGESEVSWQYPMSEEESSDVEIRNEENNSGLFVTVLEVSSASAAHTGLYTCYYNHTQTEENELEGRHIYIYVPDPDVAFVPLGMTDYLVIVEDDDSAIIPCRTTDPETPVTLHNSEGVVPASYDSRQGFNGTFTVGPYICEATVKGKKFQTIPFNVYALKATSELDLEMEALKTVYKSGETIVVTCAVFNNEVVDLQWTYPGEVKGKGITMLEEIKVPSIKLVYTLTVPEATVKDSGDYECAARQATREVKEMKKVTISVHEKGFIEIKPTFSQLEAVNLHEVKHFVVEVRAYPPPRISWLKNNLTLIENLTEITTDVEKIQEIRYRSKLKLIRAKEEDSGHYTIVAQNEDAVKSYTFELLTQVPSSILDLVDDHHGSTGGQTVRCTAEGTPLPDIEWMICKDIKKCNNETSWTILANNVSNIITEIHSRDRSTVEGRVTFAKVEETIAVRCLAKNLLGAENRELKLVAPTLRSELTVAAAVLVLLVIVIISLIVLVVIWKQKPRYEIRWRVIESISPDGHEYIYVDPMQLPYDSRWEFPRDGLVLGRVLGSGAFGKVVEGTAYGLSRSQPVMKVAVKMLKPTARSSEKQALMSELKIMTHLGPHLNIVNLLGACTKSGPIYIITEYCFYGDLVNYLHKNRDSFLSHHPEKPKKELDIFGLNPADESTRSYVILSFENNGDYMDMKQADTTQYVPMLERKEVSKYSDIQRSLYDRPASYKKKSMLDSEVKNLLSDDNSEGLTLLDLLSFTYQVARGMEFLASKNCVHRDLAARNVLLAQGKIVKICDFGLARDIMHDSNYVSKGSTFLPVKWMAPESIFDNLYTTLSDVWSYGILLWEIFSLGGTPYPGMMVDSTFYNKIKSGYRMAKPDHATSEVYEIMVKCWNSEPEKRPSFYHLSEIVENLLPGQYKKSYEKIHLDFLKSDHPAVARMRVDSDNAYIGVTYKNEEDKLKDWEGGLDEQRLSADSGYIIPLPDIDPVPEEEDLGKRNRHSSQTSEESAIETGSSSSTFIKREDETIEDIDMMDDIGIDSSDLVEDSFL
Sequence of UniProt Q9UM07 (whole entry, looked up): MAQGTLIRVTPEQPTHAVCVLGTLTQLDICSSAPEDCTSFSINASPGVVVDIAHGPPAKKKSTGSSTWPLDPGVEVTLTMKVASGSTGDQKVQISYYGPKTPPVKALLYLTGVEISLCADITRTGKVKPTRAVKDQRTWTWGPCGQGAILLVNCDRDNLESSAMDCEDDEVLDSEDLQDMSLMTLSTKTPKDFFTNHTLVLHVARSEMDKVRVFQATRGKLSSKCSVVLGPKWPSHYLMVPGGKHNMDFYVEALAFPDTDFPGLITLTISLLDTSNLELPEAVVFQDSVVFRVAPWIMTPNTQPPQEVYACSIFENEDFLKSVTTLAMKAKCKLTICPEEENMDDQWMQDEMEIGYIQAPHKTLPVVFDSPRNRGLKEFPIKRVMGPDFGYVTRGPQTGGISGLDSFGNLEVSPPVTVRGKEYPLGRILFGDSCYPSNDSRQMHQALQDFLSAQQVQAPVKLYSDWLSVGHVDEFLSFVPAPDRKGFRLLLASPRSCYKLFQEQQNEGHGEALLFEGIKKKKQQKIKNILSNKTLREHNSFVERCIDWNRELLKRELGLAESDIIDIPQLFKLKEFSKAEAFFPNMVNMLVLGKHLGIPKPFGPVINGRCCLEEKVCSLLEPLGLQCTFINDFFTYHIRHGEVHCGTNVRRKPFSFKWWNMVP
Sequence of UniProt P09598 (whole entry, looked up): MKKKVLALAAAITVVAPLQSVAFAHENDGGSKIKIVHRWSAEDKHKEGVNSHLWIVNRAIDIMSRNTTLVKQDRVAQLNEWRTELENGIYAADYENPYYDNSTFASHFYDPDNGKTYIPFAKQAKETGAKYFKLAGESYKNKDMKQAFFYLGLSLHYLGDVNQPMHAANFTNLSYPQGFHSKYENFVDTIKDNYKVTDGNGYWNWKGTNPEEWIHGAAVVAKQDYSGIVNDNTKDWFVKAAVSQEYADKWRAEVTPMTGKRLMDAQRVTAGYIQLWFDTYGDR

CC(C)[C@@H]1NC(=O)[C@@H]2CCCN2C(=O)[C@@H](C(C)C)NC(=O)[C@H]2CCCN2C(=O)[C@H](C(C)C)NC(=O)[C@@H]2CCCN2C(=O)[C@@H](C(C)C)NC(=O)[C@H]2CCCN2C(=O)[C@H](C(C)C)NC(=O)[C@@H]2CCCN2C(=O)[C@@H](C(C)C)NC(=O)[C@H]2CCCN2C1=O
bi-ionic potential (sheep lipid bilayer; 10 µM, pH 7.4, 23 °C, with: 0.1 M K+ vs Rb chloride): 2 mV

CS(C)(=O)=Nc1ccc(-c2ccc(-c3nc4cc(O[C@@H]5CO[C@H]6[C@@H]5OC[C@H]6O)[nH]c4cc3F)cc2)cc1
inhibition (Phospholipase C (Bacillus cereus, UniProt P09598); enzyme activity, inhibitor; 10 µM): 43%

CC(C)C[C@@H]1NC(=O)[C@@H](Cc2c[nH]c3ccccc23)NC(=O)[C@H](CCCNC(=N)N)NC(=O)[C@@H](CCC(=O)O)NC(=O)[C@H](CCC(N)=O)NC(=O)[C@@H](CCC(=O)O)NC(=O)[C@H](CCCNC(=N)N)NC(=O)[C@@H](Cc2c[nH]c3ccccc23)NC1=O
cytokine level (Luminex, measured: IL-15; LDLr-/- mice, Western diet, liver; dose not given, 4 weeks): 960 ± 370 pg/g tissue

CCCCSC(SCCCC)c1ccc(OCCNS(=O)(=O)c2ccc(F)cc2)c(OC)c1
EC50 (tobacco mosaic virus; protective activity; in vivo plant): 269 ± 3.7 µg/mL (≈ 522 µM)

N[C@H](C(=O)N1CCCC1)C1CCN(c2nccc3c(-c4ncc(Cl)cc4Cl)cccc23)CC1
inhibition (Protein-arginine deiminase type-4 (PADI4, Homo sapiens, UniProt Q9UM07); enzyme activity, GDH-coupled; 60 µM, with: 0.25 mM Ca2+ (low)): 102%

COc1ccccc1-c1n[nH]c2nc(NC3CCN(C(=O)Cc4ccc(F)cc4F)CC3)ncc12
relative abundance (bead binding, competition bead pull-down, measured: LINJ.36.0800; Leishmania donovani axenic amastigote extract; 10 µM; reference: vehicle): 0.87

Cc1cc(C(=O)Nc2nc3cccc(C)c3n2[C@H]2CCCCN(C(=O)/C=C/CN(C)C)C2)ccn1
EC50 fold shift (Trypanosoma brucei; cell growth, Alamar Blue; 2T1 overexpressing Tb927.10.5140; reference: parental 2T1): 0.47 fold and 0.71 fold

CN1C(=O)C(C2C3=C(CCCC3=O)Oc3ccc(Br)cc32)C(=O)N(C)C1=O (stereo not drawn)
mean lipid content (3T3-L1 preadipocytes; adipogenesis, Oil Red O staining; IC20, 14 days): 0.967 OD492

CCSC(SCC)c1ccc(OCCNS(=O)(=O)c2ccc(C)cc2)c(Cl)c1
EC50 (Tobacco mosaic virus; protective activity; plant in vivo): 892.2 ± 2.3 µg/mL (≈ 1940 µM)

CC1CCC2C(C)C(CCCOC(=O)C(Cc3ccc(N(CCCl)CCCl)cc3)NC(=O)OC(C)(C)C)OC3OC4(C)CCC1C32OO4 (stereo not drawn)
IC50 (Hep3B; cell growth or viability, CCK-8): 640 nM

Nc1ncc(-c2cc(-c3cnn(CC(F)(F)F)c3)ncc2F)nc1C(=O)NC1CNCC(F)C1 (stereo not drawn)
remaining binding (ABL1(M351T)-phosphorylated; KINOMEscan competition binding; 1 µM; reference: DMSO control): 100%

CC[C@H](C)[C@@H]([C@@H](CC(=O)N1CCC[C@H]1[C@H](OC)[C@@H](C)C(=O)N[C@H](C)[C@@H](O)c1ccccc1)OC)N(C)C(=O)[C@@H](NC(=O)[C@H](C(C)C)N(C)C(=O)OCc1ccc(NC(=O)[C@H](CCCNC(N)=O)NC(=O)[C@@H](NC(=O)CCCCCN2C(=O)CC(SC[C@H](NC(=O)[C@H](CC(=O)O)NC(=O)[C@H](Cc3ccc(O)cc3)NC(=O)[C@H](Cc3c[nH]c4ccccc34)NC(=O)[C@@H](N)CCCNC(=N)N)C(=O)O)C2=O)C(C)C)cc1)C(C)C (stereo partly drawn)
concentration (C57BL/6 mouse, healthy, spleen; intraperitoneal, 2.5 mg/kg, 24 h): not detected

CC(C)CC(C(=O)N1CC2(CC1C#N)C(=O)Nc1ccccc12)N(C)C(=O)c1cc2c(F)cc(F)c(F)c2[nH]1 (stereo not drawn)
inhibition (Human coronavirus 229E; cytopathic effect; MRC5; 80 nM): 105%

Cc1cc(Oc2nc(N3CC[C@@H](c4ccncc4)C3)ncc2F)[nH]n1
normalised growth (Mycobacterium tuberculosis; OD; H37Rv PurF CRISPRi knockdown; 1.5e-05 µM, with: anhydrotetracycline low): 98% and 96% and 100%

CSCC[C@H](NC(=O)[C@@H](NC(=O)[C@H](CCC(N)=O)NC(=O)[C@H](CO)NC(=O)[C@@H](N)C(C)C)[C@@H](C)O)C(=O)N[C@@H](CCCNC(=N)N)C(=O)N[C@@H](CCC(N)=O)C(=O)N[C@H](C(=O)N[C@@H](C)C(=O)N[C@H](C(=O)N1CCC[C@H]1C(=O)N[C@@H](CC(C)C)C(=O)N[C@@H](CC(C)C)C(=O)N[C@@H](Cc1c[nH]c2ccccc12)C(=O)N[C@@H](Cc1ccccc1)C(=O)N[C@@H](Cc1c[nH]c2ccccc12)C(=O)N[C@H](C(=O)NCC(=O)N[C@@H](CO)C(=O)N[C@@H](CC(C)C)C(=O)NCCOCCOCCOCCOCCOCCOCCOCCOCCOCCOCCOCCOCCC(=O)N[C@@H](CS)C(N)=O)[C@@H](C)O)C(C)C)[C@@H](C)O
selectivity ratio (PC-3 prostate cancer; phage binding; reference: targeting over control phage): 4.2 ± 1.6

CC(C)[C@H]1NC(=O)C[C@H]2/C=C/CCSSC[C@@H](NC1=O)C(=O)N[C@H](Cc1cccc3ccccc13)C(=O)NCC(=O)O2
inhibition (Platelet-derived growth factor receptor alpha (PDGFRA, Homo sapiens, UniProt P16234); enzyme activity, inhibitor; 10 µM): 8.9%

CC[C@H](C)[C@H](NC(=O)[C@H](CO)NC(=O)[C@H](Cc1ccc(O)cc1)NC(=O)[C@H](Cc1ccc(O)cc1)NC(=O)[C@H](CC(N)=O)NC(=O)CNC(=O)[C@H](CO)NC(=O)[C@H](Cc1ccc(O)cc1)NC(=O)[C@H](CO)NC(=O)[C@H](CO)NC(=O)[C@H](CC(N)=O)NC(=O)COCCOCCNC(=O)CN1CCN(CC(=O)O)CCN(CC(=O)O)CCN(CC(=O)O)CC1)C(=O)N[C@@H](CC(C)C)C(N)=O [copper-64 labelled]
maximum metastasis uptake (dynamic PET; tamoxifen-induced PDAC mouse model, metastases; 7.5 min, CLDN4-expressing tumours): 27.5 %IA/cc

CN(C)[C@H]1C[C@@]23CC[C@@]4(O2)C(=CC[C@]2(C)[C@@H](c5ccc6ccncc6c5)CC[C@H]24)C=C3[C@@H](O)[C@@H]1O
inhibition (Serine/threonine-protein kinase A-Raf (ARAF, Homo sapiens, UniProt P10398); ATP probe labelling, inhibitor, KiNativ profiling; 0.1 µM): 0.3%

CCn1cnc2c(Oc3ccc(/C=C/C(=O)c4ccc(NS(=O)(=O)c5ccccc5C)cc4)cc3)ncnc21
EC50 (Tobacco mosaic virus; curative activity; plant in vivo): 471.5 ± 1.4 µg/mL (≈ 874 µM)

COc1ccccc1-c1n[nH]c2nc(N[C@H]3CC[C@H](NS(=O)(=O)CC(C)C)CC3)ncc12
relative abundance (bead binding, competition bead pull-down, measured: LINJ.35.1490; Leishmania donovani extract; 10 µM; reference: vehicle): 0.87

CC(C)(C)C(=O)OCOP(=O)(OCOC(=O)C(C)(C)C)C1CCCN(O)C1=O (stereo not drawn)
log LC50 (K562): > -4 log M

O=C1NC2(CC2)COc2ncc(F)cc2[C@H]2COCCN2c2ccn3ncc1c3n2
organ-to-brain weight ratio (Sprague-Dawley rat, male, kidneys; oral, 5 mg/kg/day, 4 weeks, end of treatment): 141 ± 7.11%

CNCCO.O=C(O)C(Cl)Cl
herbicidal inhibition (Eclipta prostrata; 15 mg/mL, 21 days, pre-emergence, greenhouse): 0%

N=C(N)NCCC[C@@H]1NC(=O)[C@H](CCCCNC(=O)CCC(NC(=S)Nc2ccc(CC3CN(CC(=O)O)CCN(CC(=O)O)CCN(CC(=O)O)CCN3CC(=O)O)cc2)C(=O)NCCCC[C@@H]2NC(=O)[C@@H](Cc3ccc(O)cc3)NC(=O)[C@H](CC(=O)O)NC(=O)CNC(=O)[C@H](CCCNC(=N)N)NC2=O)NC(=O)[C@@H](Cc2ccc(O)cc2)NC(=O)[C@H](CC(=O)O)NC(=O)CNC1=O (stereo partly drawn) [scandium-44 labelled]
tissue uptake (PET imaging ROI; female athymic nude mice, U-87 MG xenograft, kidney; intravenous, 0.5 h, with: cRGD 50 mg/kg blocking): 3.17 ± 0.4 %ID/g

CCCCCCCCCCCC(=O)C(C)C(=O)N1CCC[C@H]1C(=O)NC(C)(C)C(=O)NC(C)(C)C(=O)NC(C)(C)C(=O)N[C@](C)(CC)C(=O)NCCC(=O)N[C@@H](C)C(=O)N[C@](C)(CC)C(=O)N[C@@H](C)C(=O)N[C@@H](CC(C)C)C(=O)N[C@](C)(CC)C(=O)NCCC(=O)N[C@@H](C)C(=O)N[C@](C)(CC)C(=O)NCCC(=O)N[C@@H](C)C(=O)NC(C)(C)C(=O)NC(C)(C)C(=O)NC(C)(C)C(=O)N[C@@H](C)C(=O)N[C@@H](CC(=O)O)C(=O)O (stereo partly drawn)
bound compound (MS peak area) (β-1,3-glucan; pull-down, LC-MS; 1 h, pH 7.0, 30 °C, with: β-glucan 1 mg/mL; higher = more bound): 1310 a.u.

C[n+]1ccc(Nc2ccc(O)cc2)c2ccc(Cl)cc21.[I-]
inhibition (Dengue virus type 2; viral replication, Rluc reporter replicon; BHK-21 DENV2 replicon cells; 50 µM, 24 h): 20.7 ± 2.9%

O=C1NC(=O)c2c1c1cc(F)c[n+]3c1c1c2c2cc(O)ccc2[n]1[Ru-4]312([N]=C=S)[S+]3CC[S+]1CC[S+]2CC3 (stereo not drawn)
remaining activity (Ephrin type-A receptor 1 (EPHA1, Homo sapiens, UniProt P21709); enzyme activity; 100 nM, human enzyme, with: 10 µM ATP; reference: untreated): 107%

A few entries again:
CC(C)(C)C(=O)OCOP(=O)(OCOC(=O)C(C)(C)C)C1CCCN(O)C1=O (stereo not drawn)
log LC50 (K562): > -4 log M
